Results pooled from the literature.
Protocols differ between the studies behind these lines. Values joined by “and” are separate records of one study, mostly repeats; a detail may differ. ± gives the spread as reported.
KCNT1: Potassium channel subfamily T member 1 (KCNT1, Homo sapiens, UniProt Q5JUK3)
Kelch domain-containing protein 2: Kelch domain-containing protein 2 (UniProt Q9Y2U9)
YAP1 WW1 domain: Transcriptional coactivator YAP1, WW1 domain (YAP1, Homo sapiens, UniProt P46937)
YAP1 WW2 domain: Transcriptional coactivator YAP1, WW2 domain (YAP1, Homo sapiens, UniProt P46937)
T1: miR-21 precursor (Homo sapiens); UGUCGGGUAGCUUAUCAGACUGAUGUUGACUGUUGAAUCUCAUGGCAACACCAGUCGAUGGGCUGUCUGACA

COCC(=O)O[C@]1(CCN(C)CCCc2nc3ccccc3[nH]2)CCc2cc(F)ccc2[C@@H]1C(C)C  minimum activity (KCNK9 (Homo sapiens, UniProt Q9NPC2); ion channel activity, thallium flux; HEK293 (tetracycline-inducible K2P9.1); concentration not given): 72%
CC(=O)C(C)=NO  bound plasminogen fluorescence (integrin alphaM beta2 (human); ligand binding, inhibitor, flow cytometry; human neutrophils; concentration not given, 1 h, 37 °C, integrin clustering inhibitor, added: Alexa 488-labelled plasminogen; baseline: no inhibitor, lower means less binding): 232 ± 30 MFI
Oc1ccc(/C=C/c2ccc3cc4ccccc4cc3c2)cc1O  fluorescence increase (Transthyretin, fibrils (TTR, Homo sapiens, UniProt P02766); binding, fluorescence emission; 1 µM, pH 3.0, added: 5 µM fibrils (monomer); baseline: free compound): 8.8 fold
Brc1ccccc1SSc1ccccc1Br  inhibition (tubulin; colchicine binding, [3H]colchicine binding; 5 µM, 10 min, 37 °C, added: [3H]colchicine 5.0 µM): 27 ± 3%
CCOc1ccccc1S(=O)(=O)N1CC(c2ncc(-c3ccc(F)cc3)o2)C1  efficacy (KCNT1; Tl+ flux, activator; HEK293 expressing KCNT1; 30 µM; baseline: loxapine maximum response): 34%
NRGFVFGG  fraction of protein bound (Kelch domain-containing protein 2; native mass spectrometry; peptide, 200 mM ammonium acetate; 20 µM Kelch domain-containing protein 2, pH 7; baseline: total Kelch domain-containing protein 2 signal): 0.4%
IINFEKE  Hill coefficient (ERAP1 (Homo sapiens, UniProt Q9NZ08, I681R); substrate; peptide; pH 8.0, 27 °C, mutant I681R, added: L-AMC, peptide activator 100 µM): 1.7
CCOc1ccccc1S(=O)(=O)N1CC(c2cc(-c3ccc(F)cc3)on2)C1  activity class (KCNT1; Tl+ flux, inhibitor; HEK293 expressing KCNT1; 30 µM): inactive
IKPAKRMKFKTVCYLLVQLMHCRKMFKA  koff1 (Calmodulin-1 (Calm1, Rattus norvegicus, UniProt P0DP29); Ca2+ dissociation, stopped-flow quin-2 fluorescence; peptide; 2 µM, pH 7.4, 22 °C, added: Ca2+-calmodulin complex): 7.98 s⁻¹ and 8 s⁻¹
CCN(c1nc(N)c(C(=O)NC(=N)N)nc1Cl)C(C)C  current change (Degenerin mec-4 (mec-4, Caenorhabditis elegans, UniProt P24612, A713T); ion current, two-electrode voltage clamp; Xenopus oocytes coexpressing MEC-2; 30 µM, -85 mV; baseline: uninjected oocytes, positive inhibition, negative potentiation): 5.53 µA
CSCC[C@H](NC(=O)[C@@H]1CCCN1C(=O)[C@@H](NC(=O)[C@H](Cc1ccc(O)cc1)NC(=O)[C@H](C)NC(=O)[C@@H]1CCCN1C(=O)[C@@H]1CCCN1C(=O)[C@@H]1CCCN1C(=O)[C@H](CO)NC(=O)[C@H](Cc1c[nH]cn1)NC(=O)CN)[C@@H](C)O)C(=O)N[C@@H](CO)C(=O)O  ΔG (YAP1 WW1 domain; binding, ITC; pH 7.0, 25 °C, WW1 domain): -5.57 ± 0.08 kcal/mol
Nc1ccc(-c2nc([C@H]3CCc4cc(-c5cc(Cl)ccc5-n5cnnn5)cc(=O)n43)c(F)[nH]2)c(F)n1  FXI activity inhibition (F11 (Homo sapiens, UniProt P03951); human, blood; oral, 150 mg once daily, fed, day 14, 24 h): 73 ± 9.6%
Ac-ALKSENYADKVEFKDAKYEASALANEFADA-NH2 (N-acetyl, C-amide)  binding (cGMP-dependent protein kinase 1, isoform alpha (PRKG1, Bos taurus, UniProt P00516); surface plasmon resonance; peptide; concentration not given, 7 min, 25 °C, immobilized peptide, 250 nM protein): no binding
CC(C)C[C@H](NC(=O)[C@@H](NC(=O)[C@@H](N)[C@@H](C)O)C(C)C)C(=O)N[C@@H](C)C(=O)N1CCC[C@H]1C(=O)N1CCC[C@H]1C(=O)N1CCC[C@H]1C(=O)N[C@@H](Cc1ccc(O)cc1)C(=O)N[C@@H](CCCNC(=N)N)C(=O)N[C@@H](Cc1c[nH]cn1)C(=O)N[C@@H](CCCNC(=N)N)C(=O)N[C@@H](CC(N)=O)C(=O)O  ΔH (YAP1 WW2 domain; binding, ITC; pH 7.0, 25 °C, WW2 domain): -10.7 ± 0.28 kcal/mol
VSDGRHMFVWGG  fraction of protein bound (Kelch domain-containing protein 2; native mass spectrometry; peptide, 200 mM ammonium acetate; 20 µM Kelch domain-containing protein 2, pH 7; baseline: total Kelch domain-containing protein 2 signal): 1.7%
CCOc1ccccc1S(=O)(=O)N1CC(c2nc(-c3ccc(F)cc3Cl)no2)C1  efficacy (KCNT1; ion current, activator, automated patch clamp; CHO; 30 µM; baseline: bepridil 60 µM): 100%
Nc1nc2c(ncn2[C@@H]2O[C@H](COP(=O)(O)OP(=O)(O)OP(=O)(O)O)[C@@H](O)[C@H]2O)c(=O)[nH]1  half-time of association (RAB32 (Homo sapiens, UniProt Q13637); nucleotide binding, radiolabelled nucleotide association; pH 7.5, nucleotide-depleted GST fusion protein, low magnesium): 12 min
CC(C)C[C@H](NC(=O)[C@@H](NC(=O)[C@@H](N)[C@@H](C)O)C(C)C)C(=O)N1CCC[C@H]1C(=O)N1CCC[C@H]1C(=O)N1CCC[C@H]1C(=O)N1CCC[C@H]1C(=O)N[C@@H](Cc1ccc(O)cc1)C(=O)N[C@@H](CCCNC(=N)N)C(=O)N[C@@H](Cc1c[nH]cn1)C(=O)N[C@@H](C)C(=O)N[C@@H](CC(N)=O)C(=O)O  ΔG (YAP1 WW2 domain; binding, ITC; pH 7.0, 25 °C, WW2 domain): -5.57 ± 0.11 kcal/mol
CC[C@@]1(O)C[C@H](O[C@H]2C[C@H](N(C)C)[C@H](O)[C@H](C)O2)c2c(cc3c(c2O)C(=O)c2c(O)cccc2C3=O)[C@H]1C(=O)OC  melting temperature shift (T1, miR-21 precursor (Homo sapiens); DSF; 3 µM, NaCl 0.25 mM): -17.1 °C
Cc1cc(C)c2cc(C#N)c(NCCNC(=O)c3cnccn3)nc2c1  EC50 (CFTR (Homo sapiens, UniProt P13569, del508-508); iodide influx, potentiator; FRT expressing ΔF508-CFTR and YFP; up to 50 µM, low-temperature rescued, added: forskolin 20 µM): inactive
Nc1ncnc2c1ncn2[C@@H]1O[C@H](COP(=O)(O)OP(=O)(O)OP(=O)(O)O)[C@@H](O)[C@H]1O  koff (ATP1A1 (Canis lupus familiaris, UniProt P50997); 4 °C, preparation A, added: 45 mM Na+ arginine replacement): 1.5 ± 0.36 s⁻¹
GSRPQRLLWQTAVRHITEQRFIHGH  koff2 (Calmodulin-1 (Calm1, Rattus norvegicus, UniProt P0DP29, D130A/D94A); Ca2+ dissociation, stopped-flow quin-2 fluorescence; peptide; 2 µM, pH 7.4, 22 °C, added: Ca2+-calmodulin complex): 67 s⁻¹ and 66.9 s⁻¹
Cc1cc(=O)oc2cc(NC(=O)[C@@H](N)CC(C)C)ccc12  Vmax (ERAP1 (Homo sapiens, UniProt Q9NZ08, F803R); hydrolysis of compound, substrate; varied from 0 µM, 5 min, pH 8.0, 27 °C, mutant F803R, no peptide activator): 200 ± 2 nmol/min/µg
O=S(=O)(c1ccc(F)cc1)N1CC(c2nc(-c3ccsc3)no2)C1  activity class (KCNT1; Tl+ flux, inhibitor; HEK293 expressing KCNT1; 30 µM): inactive
Cc1ncsc1-c1ccc(CNC(=O)[C@@H]2C[C@@H](O)CN2C(=O)[C@@H](NC(=O)COCCOCCOCCOCCOc2cc3nccc(Nc4ccc5scnc5c4)c3cc2S(=O)(=O)C(C)(C)C)C(C)(C)C)cc1  hook effect onset (RIPK2 (Homo sapiens, UniProt O43353); degrader, immunoblot; THP-1; 16 h): > 3 µM
C/C(=N/N=c1/scc(-c2ccc([N+](=O)[O-])cc2)n1-c1ccc(F)cc1)c1ccc2c(c1)NC(=O)CO2  inhibition (Aldo-keto reductase family 1 member A1 (Bos taurus, UniProt Q3ZCJ2); enzyme activity, inhibitor, absorbance; 1 mM): 24.7%
CC[C@H](C)[C@H](NC(=O)[C@@H]1CCCN1C(=O)[C@@H]1CCCN1C(=O)[C@@H]1CCCN1C(=O)[C@@H](NC(=O)[C@H](CC(N)=O)NC(=O)[C@@H](N)Cc1ccccc1)[C@@H](C)CC)C(=O)N[C@@H](Cc1ccc(O)cc1)C(=O)N[C@H](C(=O)N[C@@H](CO)C(=O)N[C@@H](CCCNC(=N)N)C(=O)N[C@@H](C)C(=O)O)[C@@H](C)O  ΔH (YAP1 WW1 domain; binding, ITC; pH 7.0, 25 °C, WW1 domain): -6.14 ± 0.31 kcal/mol
CC(=O)Oc1c(C)occc1=O  kobs (porcine liver esterase; conversion; 50 µM, pH 7.5, room temperature, added: PLE 0.178 U): 9 s⁻¹
N[C@@H](Cc1cnc[nH]1)C(=O)O  ΔTm (HARS1 (Homo sapiens, UniProt P12081); thermal stability, DSF): 7 °C
IINFEKL  Hill coefficient (ERAP1 (Homo sapiens, UniProt Q9NZ08, V737R); substrate; peptide; pH 8.0, 27 °C, mutant V737R, added: L-AMC, peptide activator 100 µM): 1.4
CCCCc1nc(Cl)c(CO)n1Cc1ccc(-c2ccccc2-c2nn[nH]n2)cc1  β-arrestin recruitment (AGTR1 (Homo sapiens, UniProt P30556); antagonist, PathHunter β-arrestin; CHO cells transfected with receptor; 10 µM, added: post-immune serum 1:100; baseline: buffer baseline): 158 ± 15%
CC(C)C[C@H](NC(=O)[C@@H](NC(=O)[C@@H](N)[C@@H](C)O)C(C)C)C(=O)N1CCC[C@H]1C(=O)N1CCC[C@H]1C(=O)N1CCC[C@H]1C(=O)N1CCC[C@H]1C(=O)N[C@@H](Cc1ccc(O)cc1)C(=O)N[C@@H](C)C(=O)N[C@@H](Cc1c[nH]cn1)C(=O)N[C@@H](CCCNC(=N)N)C(=O)N[C@@H](CC(N)=O)C(=O)O  TΔS (YAP1 WW1 domain; binding, ITC; pH 7.0, 25 °C, WW1 domain): -3.95 ± 0.42 kcal/mol
